Published values of several laboratories.
Protocols differ between the studies behind these lines. Values joined by “and” are separate records of one study, mostly repeats; a detail may differ. ± gives the spread as reported. ≈ marks a conversion by molar mass, not a printed value.
UniProt Q9UM73, sequence (whole entry, unmodified, looked up): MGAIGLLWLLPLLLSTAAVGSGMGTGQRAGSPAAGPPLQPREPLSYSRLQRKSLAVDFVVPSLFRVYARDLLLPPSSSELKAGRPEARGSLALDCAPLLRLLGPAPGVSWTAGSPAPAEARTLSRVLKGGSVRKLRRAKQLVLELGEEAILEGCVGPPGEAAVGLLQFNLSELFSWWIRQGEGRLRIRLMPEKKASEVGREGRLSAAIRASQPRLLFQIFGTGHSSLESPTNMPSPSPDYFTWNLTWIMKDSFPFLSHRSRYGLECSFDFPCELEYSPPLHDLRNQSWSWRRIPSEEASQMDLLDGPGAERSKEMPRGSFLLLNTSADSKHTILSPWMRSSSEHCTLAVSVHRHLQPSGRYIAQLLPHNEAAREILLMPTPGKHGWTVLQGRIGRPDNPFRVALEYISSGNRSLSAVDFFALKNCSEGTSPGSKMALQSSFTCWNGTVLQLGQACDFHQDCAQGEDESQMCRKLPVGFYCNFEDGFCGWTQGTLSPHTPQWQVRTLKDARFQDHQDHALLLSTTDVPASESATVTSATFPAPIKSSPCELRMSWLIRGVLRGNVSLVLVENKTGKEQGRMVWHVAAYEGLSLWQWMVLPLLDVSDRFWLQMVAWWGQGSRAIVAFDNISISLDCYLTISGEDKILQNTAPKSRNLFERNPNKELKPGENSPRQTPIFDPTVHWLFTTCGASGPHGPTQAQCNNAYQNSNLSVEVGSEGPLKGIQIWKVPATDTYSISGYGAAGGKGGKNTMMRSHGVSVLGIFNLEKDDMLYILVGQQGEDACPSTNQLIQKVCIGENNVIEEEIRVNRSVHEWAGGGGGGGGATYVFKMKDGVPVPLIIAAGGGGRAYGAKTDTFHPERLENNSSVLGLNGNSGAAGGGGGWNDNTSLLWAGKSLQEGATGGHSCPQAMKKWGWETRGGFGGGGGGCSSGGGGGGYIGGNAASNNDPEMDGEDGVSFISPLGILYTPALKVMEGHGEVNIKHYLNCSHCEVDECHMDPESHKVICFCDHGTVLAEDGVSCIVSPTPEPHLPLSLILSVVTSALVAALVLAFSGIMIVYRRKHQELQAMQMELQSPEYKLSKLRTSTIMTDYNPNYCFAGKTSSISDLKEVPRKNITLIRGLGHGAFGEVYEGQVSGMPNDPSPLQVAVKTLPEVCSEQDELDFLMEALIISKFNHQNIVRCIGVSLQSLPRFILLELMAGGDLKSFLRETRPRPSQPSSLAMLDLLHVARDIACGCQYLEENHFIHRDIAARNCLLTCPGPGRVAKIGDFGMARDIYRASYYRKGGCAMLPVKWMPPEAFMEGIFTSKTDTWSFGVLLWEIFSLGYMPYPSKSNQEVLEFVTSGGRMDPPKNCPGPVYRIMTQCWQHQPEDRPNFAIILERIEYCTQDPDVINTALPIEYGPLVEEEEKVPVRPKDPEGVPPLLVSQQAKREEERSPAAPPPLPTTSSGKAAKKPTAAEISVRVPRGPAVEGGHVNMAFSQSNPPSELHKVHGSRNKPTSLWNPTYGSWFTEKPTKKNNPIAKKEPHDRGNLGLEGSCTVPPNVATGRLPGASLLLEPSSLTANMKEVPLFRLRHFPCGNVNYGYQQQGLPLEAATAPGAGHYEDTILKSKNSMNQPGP
UniProt P49761, sequence (whole entry, looked up): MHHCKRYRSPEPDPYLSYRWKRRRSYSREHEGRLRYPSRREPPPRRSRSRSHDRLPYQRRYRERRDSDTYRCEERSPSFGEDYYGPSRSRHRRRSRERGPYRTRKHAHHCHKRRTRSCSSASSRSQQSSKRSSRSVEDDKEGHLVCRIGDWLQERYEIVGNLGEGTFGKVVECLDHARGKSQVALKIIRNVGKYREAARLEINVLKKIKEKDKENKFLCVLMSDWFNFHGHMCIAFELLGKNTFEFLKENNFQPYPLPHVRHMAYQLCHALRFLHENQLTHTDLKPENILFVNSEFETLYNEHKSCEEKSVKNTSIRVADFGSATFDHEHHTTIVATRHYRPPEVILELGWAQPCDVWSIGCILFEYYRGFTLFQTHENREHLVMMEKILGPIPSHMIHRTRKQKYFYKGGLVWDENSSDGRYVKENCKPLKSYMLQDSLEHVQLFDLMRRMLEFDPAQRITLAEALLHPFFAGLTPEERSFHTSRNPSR

| Compound | tested on | test | system | conditions | scale | endpoint | value |
| --- | --- | --- | --- | --- | --- | --- | --- |
| Cc1ncsc1-c1ccc(C(C)NC(=O)C2CC(O)CN2C(=O)C(NC(=O)CCCCCCCCCCN2CCCC(Nc3ncc(Cl)c(Nc4ccccc4S(=O)(=O)C(C)C)n3)C2)C(C)(C)C)cc1 (stereo not drawn) | 22Rv1 | RNA-seq, refers to: ZNF557 mRNA | – | concentration not given | relative to: DMSO | log2 fold change | -1.98 |
| O=C(N/N=C/c1cc[n+](CC2CC2)c2ccccc12)c1cncc(C(=O)N/N=C/c2cc[n+](CC3CC3)c3ccccc23)n1 | 22CTA telomeric G4-DNA antiparallel | FRET melting | – | 1 µM, K10 buffer, DNA 0.2 µM, with: ds26 10 µM | – | ΔTm | 15.2 ± 0.2 °C |
| N#CCNC(=O)c1ccc([C@H]2[C@@H](F)[C@@H](F)C[C@@H](F)[C@H]2F)cc1 | – | hepatocyte stability | cryopreserved rat hepatocytes | 1 µM | – | hepatic clearance | 13 mL/min/kg |
| c1ccc(-c2n[nH]cc2-c2ccnc3ccccc23)nc1 | ENV7 (Candida albicans) | kinase binding, MIB/MS competition | Candida albicans lysate | 10 µM | relative to: DMSO | log2 fold change | 0.04 |
| C=C(NC(=O)c1csc(-c2nc3c(cc2O)-c2nc(cs2)C(=O)NC(C(C)O)C(=O)NC(=C(C)OC)c2nc(cs2)C(=O)NC2c4nc(cs4)C(=O)NC(COC(=O)c4c5c6c(cccc6n4O)COC(=O)C(OC4CC(C)(O)C(N(C)C)C(C)O4)C2OC5)c2nc-3cs2)n1)C(N)=O (stereo not drawn) | Staphylococcus epidermidis | – | methicillin-resistant, 10 isolates | pH 5.5 | – | MIC50 | 7.8 ng/mL (≈ 5.43 nM) |
| CC[n+]1cccc2cc(/C=N/NC(=O)c3cccc(C(=O)N/N=C/c4ccc5c(ccc[n+]5CC)c4)n3)ccc21 | 22CTA telomeric G4-DNA antiparallel | FRET melting | – | 1 µM, K10 buffer, DNA 0.2 µM | – | ΔTm | 15.1 ± 0.5 °C |
| CCn1nc(Cl)c2c1-c1cnc(N)c(c1)O[C@H](C)c1cc(F)ccc1-c1nn(C)cc1C2 | ALK (Homo sapiens, UniProt Q9UM73, L1152R) | enzyme activity, inhibitor | – | with: ATP 1 mM | – | IC50 | 2.5 nM |
| CC(C)C[C@H](NC(=O)[C@@H](CCCCNC(=O)[C@@H](Cc1ccccc1)NC(=O)CCCCCNC(=O)CN1CCN(CC(=O)O)CCN(CC(=O)O)CCN(CC(=O)O)CC1)NC(=O)[C@H](Cc1ccc(O)cc1)NC(=O)[C@H](CO)NC(=O)[C@H](Cc1c[nH]c2ccccc12)NC(=O)[C@H](Cc1c[nH]cn1)NC(=O)[C@@H]1CCC(=O)N1)C(=O)N[C@@H](CCCNC(=N)N)C(=O)N1CCC[C@H]1C(=O)NCC(N)=O [indium-111 labelled] | – | – | female athymic nude mice, lung | intravenous, 0.037 MBq, 0.5 h | – | tissue uptake | 2.22 ± 0.77 %ID/g |
| CC[n+]1cccc2cc(/C=N/NC(=O)C(=O)N/N=C/c3ccc4c(ccc[n+]4CC)c3)ccc21 | 22CTA telomeric G4-DNA antiparallel | FRET melting | – | 1 µM, K10 buffer, DNA 0.2 µM, with: ds26 10 µM | – | ΔTm | 2.9 ± 0.5 °C |
| Nc1ncc(-c2cc(-c3cnn(CC(F)(F)F)c3)ncc2F)nc1C(=O)NC1CNCC(F)C1 (stereo not drawn) | CDK5 | KINOMEscan | – | 1 µM | relative to: DMSO control | remaining binding | 100% |
| C[n+]1ccc(/C=N/NC(=O)c2ccc3ccc(C(=O)N/N=C/c4cc[n+](C)cc4)nc3n2)cc1 | 22CTA telomeric G4-DNA antiparallel | FRET melting | – | 1 µM, K10 buffer, DNA 0.2 µM, with: ds26 10 µM | – | ΔTm | 4.9 ± 0.5 °C |
| Cc1nn(-c2cccc(N)c2)c(=O)c2cnc(Nc3ccc(N4CCNCC4)cc3)nc12 | CLK3 (Homo sapiens, UniProt P49761) | enzyme activity, inhibitor | – | – | – | IC50 | > 10000 nM |
| C=CC(=O)Nc1cccc(Cn2ncc3cnc(Nc4cnn(CCOC)c4)nc32)c1 | CAMKK2 human | binding, KINOMEscan | – | 100 nM | lower = stronger binding | percent of control | 76% |
| COC1OC(C)C(OC2OC(C)C(OS(=O)(=O)O)C(OC3OC(C)C(OC4OC(C)C(OS(=O)(=O)O)C(OC5OC(C)C(OC6OC(C)C(OS(=O)(=O)O)C(OS(=O)(=O)O)C6OS(=O)(=O)O)C(OS(=O)(=O)O)C5OS(=O)(=O)O)C4OS(=O)(=O)O)C(OS(=O)(=O)O)C3OS(=O)(=O)O)C2OS(=O)(=O)O)C(OS(=O)(=O)O)C1OS(=O)(=O)O (stereo not drawn) | – | – | human plasma | 16 µg/mL | – | activated partial thromboplastin time | 56.8 s and 53.8 s and 56 s |
| C[n+]1cccc2cc(/C=N/NC(=O)c3cncc(C(=O)N/N=C/c4ccc5c(ccc[n+]5C)c4)n3)ccc21 | 22CTA telomeric G4-DNA antiparallel | FRET melting | – | 1 µM, K10 buffer, DNA 0.2 µM | – | ΔTm | 13.8 ± 0.3 °C |
| C=CC(=O)N1[C@@H](c2ccc3c(c2)OCO3)c2[nH]c3ccccc3c2C[C@H]1C(=O)N1CCN(C)CC1 | human cyclin E1 N112C-3xFLAG:CDK2 | co-IP with TMT proteomics, refers to: RBMX | – | concentration not given, P38159 | relative to: wild type DMSO | relative co-enrichment | 197% |
| O=C(N/N=C/c1ccc2c(ccc[n+]2Cc2ccccc2)c1)c1ccc2ccc3ccc(C(=O)N/N=C/c4ccc5c(ccc[n+]5Cc5ccccc5)c4)nc3c2n1 | 22CTA telomeric G4-DNA antiparallel | FRET melting | – | 1 µM, K10 buffer, DNA 0.2 µM | – | ΔTm | 22.7 ± 0.5 °C |
| O=C(CCC(F)(F)F)Nc1ccc(C2CCCCC2)cc1 | – | hepatocyte stability | cryopreserved mouse hepatocytes | 1 µM | – | hepatic clearance | 76 mL/min/kg |
| COC1OC(C)C(OC2OC(C)C(O)C(OC3OC(C)C(OC4OC(C)C(O)C(OC5OC(C)C(OC6OC(C)C(O)C(OC7OC(C)C(OC8OC(C)C(O)C(OC9OC(C)C(OC%10OC(C)C(O)C(OS(=O)(=O)O)C%10OS(=O)(=O)O)C(OS(=O)(=O)O)C9OS(=O)(=O)O)C8OS(=O)(=O)O)C(OS(=O)(=O)O)C7OS(=O)(=O)O)C6OS(=O)(=O)O)C(OS(=O)(=O)O)C5OS(=O)(=O)O)C4OS(=O)(=O)O)C(OS(=O)(=O)O)C3OS(=O)(=O)O)C2OS(=O)(=O)O)C(OS(=O)(=O)O)C1OS(=O)(=O)O (stereo not drawn) | – | – | human plasma | 64 µg/mL | – | activated partial thromboplastin time | 84.3 s and 83.5 s |
| COC1CN([C@H]2CC[C@H]([C@@]3(C)Oc4c(Cl)cc(C(=O)NCc5c(SC)cc(C)[nH]c5=O)c(C)c4O3)CC2)C1 | – | RNA-seq, refers to: FHDC1 mouse homolog | mouse, HT-1376 xenograft, whole blood | dose not given | relative to: vehicle | log2 fold change | 1.1 |
| COC1OC(C)C(O)C(OC2OC(C)C(O)C(OC3OC(C)C(O)C(OC4OC(C)C(O)C(OC5OC(C)C(O)C(OC6OC(C)C(O)C(OC7OC(C)C(O)C(OC8OC(C)C(O)C(OC9OC(C)C(O)C(OC%10OC(C)C(O)C(OC%11OC(C)C(O)C(OS(=O)(=O)O)C%11OS(=O)(=O)O)C%10OS(=O)(=O)O)C9OS(=O)(=O)O)C8OS(=O)(=O)O)C7OS(=O)(=O)O)C6OS(=O)(=O)O)C5OS(=O)(=O)O)C4OS(=O)(=O)O)C3OS(=O)(=O)O)C2OS(=O)(=O)O)C1OS(=O)(=O)O (stereo not drawn) | – | – | human plasma | 128 µg/mL | – | activated partial thromboplastin time | 41.9 ± 0.6 s |
| CO[C@@H]1[C@@H](OC(N)=O)[C@@H](O)[C@H](Oc2ccc3c(O)c(NC(=O)c4ccc(O)c(CC=C(C)C)c4)c(=O)oc3c2C)OC1(C)C | HCT-116 BRCA2 wild-type | – | – | 100 µM, mean of replicates A, B | relative to: untreated | colony survival | 84.6% |
| Nc1nc2cc(CC[C@H]3C[C@@H](n4ccc5c(N)ncnc54)[C@H](O)[C@@H]3O)ccc2cc1Br | – | – | A-427 xenograft, mouse | 10.0 mg/kg/day, day 34 | – | tumour volume | 37 ± 6 mm3 |
| COC1OC(C)C(OS(=O)(=O)O)C(OC2OC(C)C(OS(=O)(=O)O)C(OC3OC(C)C(OS(=O)(=O)O)C(OC4OC(C)C(OS(=O)(=O)O)C(OC5OC(C)C(OS(=O)(=O)O)C(OC6OC(C)C(OS(=O)(=O)O)C(OS(=O)(=O)O)C6O)C5O)C4O)C3O)C2O)C1O (stereo not drawn) | – | – | human plasma | 128 µg/mL | – | activated partial thromboplastin time | 36.5 ± 0.3 s |

Excerpt of the above:
| Compound | tested on | test | system | conditions | scale | endpoint | value |
| --- | --- | --- | --- | --- | --- | --- | --- |
| C[n+]1cccc2cc(/C=N/NC(=O)c3cncc(C(=O)N/N=C/c4ccc5c(ccc[n+]5C)c4)n3)ccc21 | 22CTA telomeric G4-DNA antiparallel | FRET melting | – | 1 µM, K10 buffer, DNA 0.2 µM | – | ΔTm | 13.8 ± 0.3 °C |
| C=CC(=O)N1[C@@H](c2ccc3c(c2)OCO3)c2[nH]c3ccccc3c2C[C@H]1C(=O)N1CCN(C)CC1 | human cyclin E1 N112C-3xFLAG:CDK2 | co-IP with TMT proteomics, refers to: RBMX | – | concentration not given, P38159 | relative to: wild type DMSO | relative co-enrichment | 197% |
| O=C(N/N=C/c1ccc2c(ccc[n+]2Cc2ccccc2)c1)c1ccc2ccc3ccc(C(=O)N/N=C/c4ccc5c(ccc[n+]5Cc5ccccc5)c4)nc3c2n1 | 22CTA telomeric G4-DNA antiparallel | FRET melting | – | 1 µM, K10 buffer, DNA 0.2 µM | – | ΔTm | 22.7 ± 0.5 °C |
